Experimental data from different studies.
Every numbered part comes from another study and shows a few of its results, in no order. “And” joins repeats or separate records; there may be more than shown.
Chain of UniProt Q9P0L2 (whole entry, looked up): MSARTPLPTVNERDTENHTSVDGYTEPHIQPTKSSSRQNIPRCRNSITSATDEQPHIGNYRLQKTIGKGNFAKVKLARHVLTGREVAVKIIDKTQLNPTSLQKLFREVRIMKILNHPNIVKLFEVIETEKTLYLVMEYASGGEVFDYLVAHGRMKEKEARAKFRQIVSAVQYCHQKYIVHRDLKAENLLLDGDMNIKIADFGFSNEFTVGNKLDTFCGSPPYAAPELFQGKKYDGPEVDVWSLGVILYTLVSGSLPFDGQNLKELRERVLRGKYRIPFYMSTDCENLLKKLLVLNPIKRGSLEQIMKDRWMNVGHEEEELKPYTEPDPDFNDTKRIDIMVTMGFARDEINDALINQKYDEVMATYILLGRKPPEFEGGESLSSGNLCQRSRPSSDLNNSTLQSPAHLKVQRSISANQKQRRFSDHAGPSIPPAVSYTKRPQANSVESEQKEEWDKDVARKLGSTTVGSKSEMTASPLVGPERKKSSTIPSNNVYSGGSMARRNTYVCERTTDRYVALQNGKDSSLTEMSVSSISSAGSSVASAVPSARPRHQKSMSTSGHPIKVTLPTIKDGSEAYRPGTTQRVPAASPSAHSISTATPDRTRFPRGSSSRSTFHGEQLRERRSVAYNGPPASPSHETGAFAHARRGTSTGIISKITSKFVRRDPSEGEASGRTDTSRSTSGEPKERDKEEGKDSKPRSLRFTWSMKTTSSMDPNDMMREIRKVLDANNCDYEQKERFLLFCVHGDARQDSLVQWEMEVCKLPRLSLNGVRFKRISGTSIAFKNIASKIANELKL
Chain of UniProt Q15139 (whole entry, looked up): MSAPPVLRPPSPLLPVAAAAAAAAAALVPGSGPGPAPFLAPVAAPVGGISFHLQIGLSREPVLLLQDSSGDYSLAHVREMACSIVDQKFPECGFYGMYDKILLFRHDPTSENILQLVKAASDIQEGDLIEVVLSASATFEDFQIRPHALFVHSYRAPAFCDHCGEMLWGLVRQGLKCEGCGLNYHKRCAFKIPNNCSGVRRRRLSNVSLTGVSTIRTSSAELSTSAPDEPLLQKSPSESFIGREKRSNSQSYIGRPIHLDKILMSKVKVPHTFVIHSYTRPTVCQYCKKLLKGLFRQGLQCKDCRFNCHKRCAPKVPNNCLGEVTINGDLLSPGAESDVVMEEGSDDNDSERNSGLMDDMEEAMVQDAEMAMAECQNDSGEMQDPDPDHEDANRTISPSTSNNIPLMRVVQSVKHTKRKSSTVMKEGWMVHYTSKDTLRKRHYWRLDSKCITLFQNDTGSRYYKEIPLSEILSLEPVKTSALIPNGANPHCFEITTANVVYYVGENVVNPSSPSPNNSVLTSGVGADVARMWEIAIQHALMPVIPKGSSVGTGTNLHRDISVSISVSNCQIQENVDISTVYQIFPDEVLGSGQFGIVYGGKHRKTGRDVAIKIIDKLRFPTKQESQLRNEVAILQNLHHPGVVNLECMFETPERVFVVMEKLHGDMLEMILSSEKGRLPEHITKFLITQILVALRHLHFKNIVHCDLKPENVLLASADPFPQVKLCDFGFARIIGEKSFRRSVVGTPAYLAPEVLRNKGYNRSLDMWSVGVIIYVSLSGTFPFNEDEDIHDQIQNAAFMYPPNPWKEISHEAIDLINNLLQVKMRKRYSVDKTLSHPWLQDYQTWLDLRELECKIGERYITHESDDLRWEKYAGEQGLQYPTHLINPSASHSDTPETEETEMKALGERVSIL
Chain of UniProt P51957 (whole entry, looked up): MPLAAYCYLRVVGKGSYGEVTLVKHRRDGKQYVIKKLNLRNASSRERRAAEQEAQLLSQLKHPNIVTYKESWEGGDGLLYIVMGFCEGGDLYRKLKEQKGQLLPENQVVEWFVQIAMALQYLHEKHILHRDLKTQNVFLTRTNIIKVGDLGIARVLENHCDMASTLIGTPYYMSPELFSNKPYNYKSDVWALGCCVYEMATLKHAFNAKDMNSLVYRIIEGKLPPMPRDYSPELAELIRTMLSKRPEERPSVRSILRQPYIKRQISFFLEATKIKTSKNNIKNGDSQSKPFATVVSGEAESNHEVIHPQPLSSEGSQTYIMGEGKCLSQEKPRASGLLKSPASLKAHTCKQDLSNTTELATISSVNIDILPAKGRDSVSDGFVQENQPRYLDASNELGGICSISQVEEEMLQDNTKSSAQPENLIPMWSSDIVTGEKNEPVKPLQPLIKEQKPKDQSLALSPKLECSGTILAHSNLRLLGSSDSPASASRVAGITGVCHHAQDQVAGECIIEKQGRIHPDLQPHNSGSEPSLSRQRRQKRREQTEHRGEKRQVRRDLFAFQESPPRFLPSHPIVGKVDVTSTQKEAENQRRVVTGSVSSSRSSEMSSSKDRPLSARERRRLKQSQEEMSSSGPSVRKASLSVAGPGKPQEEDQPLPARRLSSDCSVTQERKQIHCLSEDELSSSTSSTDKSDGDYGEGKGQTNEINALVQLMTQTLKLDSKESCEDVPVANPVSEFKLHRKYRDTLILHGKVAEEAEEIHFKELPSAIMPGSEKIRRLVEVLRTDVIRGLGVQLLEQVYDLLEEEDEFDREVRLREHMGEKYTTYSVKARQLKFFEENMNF
Chain of UniProt Q12866 (whole entry, looked up): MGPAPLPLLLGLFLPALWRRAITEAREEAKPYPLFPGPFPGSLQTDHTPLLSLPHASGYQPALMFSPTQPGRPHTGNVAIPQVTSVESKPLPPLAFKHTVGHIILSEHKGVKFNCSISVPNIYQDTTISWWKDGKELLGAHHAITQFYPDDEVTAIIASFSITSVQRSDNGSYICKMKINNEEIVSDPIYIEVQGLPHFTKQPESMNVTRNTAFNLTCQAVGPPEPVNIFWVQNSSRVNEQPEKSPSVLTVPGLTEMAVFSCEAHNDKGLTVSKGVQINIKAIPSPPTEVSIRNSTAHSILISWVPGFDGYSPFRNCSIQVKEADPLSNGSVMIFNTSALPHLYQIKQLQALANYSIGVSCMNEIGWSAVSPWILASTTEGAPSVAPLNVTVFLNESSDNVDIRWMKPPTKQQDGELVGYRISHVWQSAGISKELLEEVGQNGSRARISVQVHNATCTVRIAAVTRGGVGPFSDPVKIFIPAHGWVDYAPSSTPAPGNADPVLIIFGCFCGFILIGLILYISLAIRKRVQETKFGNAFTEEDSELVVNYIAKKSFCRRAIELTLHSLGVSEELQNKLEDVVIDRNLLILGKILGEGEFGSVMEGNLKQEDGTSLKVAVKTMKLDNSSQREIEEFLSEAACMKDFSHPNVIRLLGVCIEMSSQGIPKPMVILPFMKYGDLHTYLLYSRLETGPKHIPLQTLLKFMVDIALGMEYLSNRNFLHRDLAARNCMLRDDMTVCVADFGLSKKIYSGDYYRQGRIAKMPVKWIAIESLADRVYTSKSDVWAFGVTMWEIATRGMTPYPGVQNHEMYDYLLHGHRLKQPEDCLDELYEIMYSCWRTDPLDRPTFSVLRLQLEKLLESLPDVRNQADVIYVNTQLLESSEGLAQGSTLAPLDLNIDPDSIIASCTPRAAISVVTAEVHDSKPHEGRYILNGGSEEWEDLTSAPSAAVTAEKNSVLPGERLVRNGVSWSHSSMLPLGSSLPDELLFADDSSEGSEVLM
Chain of UniProt O75914 (whole entry, looked up): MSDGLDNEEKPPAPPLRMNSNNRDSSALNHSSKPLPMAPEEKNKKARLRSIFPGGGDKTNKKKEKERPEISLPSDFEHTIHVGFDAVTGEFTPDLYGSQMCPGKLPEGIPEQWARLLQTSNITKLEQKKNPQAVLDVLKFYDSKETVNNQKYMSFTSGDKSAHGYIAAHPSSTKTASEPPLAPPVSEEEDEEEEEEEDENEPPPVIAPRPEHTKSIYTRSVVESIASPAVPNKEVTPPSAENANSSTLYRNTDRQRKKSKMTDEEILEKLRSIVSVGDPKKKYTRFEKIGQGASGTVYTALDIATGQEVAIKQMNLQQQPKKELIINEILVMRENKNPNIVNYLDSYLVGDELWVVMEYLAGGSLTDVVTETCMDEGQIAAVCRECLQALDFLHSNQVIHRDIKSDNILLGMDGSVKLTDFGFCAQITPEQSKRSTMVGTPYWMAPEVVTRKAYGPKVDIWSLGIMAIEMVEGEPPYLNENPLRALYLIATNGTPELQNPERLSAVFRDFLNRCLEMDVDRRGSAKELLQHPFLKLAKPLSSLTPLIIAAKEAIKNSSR

Block 1
Target: Ephrin type-A receptor 7 (EPHA7, Homo sapiens, UniProt Q15375)
Chain of UniProt Q15375 (whole entry, looked up): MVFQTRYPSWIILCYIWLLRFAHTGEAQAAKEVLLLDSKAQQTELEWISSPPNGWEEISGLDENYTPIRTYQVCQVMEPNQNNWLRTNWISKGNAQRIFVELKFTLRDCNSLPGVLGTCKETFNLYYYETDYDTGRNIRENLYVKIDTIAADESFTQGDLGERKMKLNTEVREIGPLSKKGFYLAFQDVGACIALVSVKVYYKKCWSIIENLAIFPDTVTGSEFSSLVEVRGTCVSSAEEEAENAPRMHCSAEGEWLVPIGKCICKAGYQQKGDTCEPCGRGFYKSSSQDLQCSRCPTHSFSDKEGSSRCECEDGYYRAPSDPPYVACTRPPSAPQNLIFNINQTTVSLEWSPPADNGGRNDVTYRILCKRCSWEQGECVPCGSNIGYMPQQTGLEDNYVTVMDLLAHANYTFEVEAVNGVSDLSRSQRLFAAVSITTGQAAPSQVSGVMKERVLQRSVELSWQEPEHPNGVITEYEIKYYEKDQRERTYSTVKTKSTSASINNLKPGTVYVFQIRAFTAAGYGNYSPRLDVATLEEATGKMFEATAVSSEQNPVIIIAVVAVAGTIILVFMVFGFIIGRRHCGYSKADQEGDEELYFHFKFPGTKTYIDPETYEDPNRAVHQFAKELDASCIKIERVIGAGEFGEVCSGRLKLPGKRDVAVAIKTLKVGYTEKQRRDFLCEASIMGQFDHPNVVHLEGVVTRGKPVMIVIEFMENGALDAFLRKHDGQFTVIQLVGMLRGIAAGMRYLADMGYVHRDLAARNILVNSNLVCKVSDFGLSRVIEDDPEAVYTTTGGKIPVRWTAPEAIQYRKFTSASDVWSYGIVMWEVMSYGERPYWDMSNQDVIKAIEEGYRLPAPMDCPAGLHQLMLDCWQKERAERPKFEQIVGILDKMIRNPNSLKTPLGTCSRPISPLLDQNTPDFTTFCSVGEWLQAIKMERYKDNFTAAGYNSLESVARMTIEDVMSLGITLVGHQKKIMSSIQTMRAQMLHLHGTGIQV
Effect on: enzyme activity
Action: inhibitor
Concentration: 0.5 µM
Baseline: control
Compound | remaining activity [%]
CCCC(=O)Oc1ccc2[nH]c(C(=O)c3cc4ccccc4[nH]3)cc2c1 | 97.2
Cc1ccc(NC2=CC(=O)c3sc(C)nc3C2=O)cc1 | 92.3
Fc1ccc(-c2nc3n(c2-c2ccncc2)CCS3)cc1 | 76.3
Cc1cc(Nc2nc(-c3ccccc3)nc3ccccc23)n[nH]1 | 72.5
CCc1[nH]c(-c2ccc(OC)cc2)nc1-c1ccncc1 | 91.6
Oc1ccc(Nc2nc(-c3ccc(Cl)cc3)cs2)cc1 | 97.7
N#CC(=C(N)Sc1ccc(N)cc1)c1ccccc1C(F)(F)F | 105
Nc1nc(Nc2ccc(S(N)(=O)=O)cc2)nn1C(=O)c1c(F)cccc1F | 68.7
Cc1cncc2cccc(S(=O)(=O)N3CCCN(C(=O)CN)C[C@@H]3C)c12 | 90.7
COc1ccc(S(=O)(=O)N(CCO)c2ccccc2CN(C)CC=Cc2ccc(Cl)cc2)cc1 | 98.9
CC(C)(C)n1nc(Cc2cccc3ccccc23)c2c(N)ncnc21 | 90.4
Nc1ncnc2c1cnn2-c1ccccc1 | 99.2
CC#CC(=O)Nc1cc2c(Nc3ccc(F)c(Cl)c3)ncnc2cn1 | 91.3
CC(=O)c1ccc(N2CCOCC2)cc1O | 95.5
CSc1nc(-c2ccnc(N[C@@H](C)c3ccccc3)c2)c(-c2ccc(F)cc2)[nH]1 (racemic) | 102
O=C1Cc2c([nH]c3ccc([N+](=O)[O-])cc23)-c2ccccc2N1 | 95
NC(=O)c1ccc(N(C(N)=O)c2c(F)cccc2F)nc1-c1ccc(F)cc1F | 79.9
COc1cc(Nc2c(C#N)cnc3cc(OCCCN4CCN(C)CC4)c(OC)cc23)c(Cl)cc1Cl | 77.2
Nc1nccc(-c2c(-c3ccc(F)cc3)ncn2C2CCNCC2)n1 | 94
O=C1NC(=O)C(c2c[nH]c3ccccc23)=C1c1c[nH]c2ccccc12 | 94.3
O=S(=O)(NCCNC/C=C/c1ccc(Br)cc1)c1cccc2cnccc12 | 109
CC[n+]1c(/C=C/N(C)c2ccccc2)n(-c2ccccc2)c2ccc(-c3nc4ccccc4s3)cc21 | 97.9

Block 2
Structure (SMILES): O=C(N1CCS(=O)(=O)CC1)N1C[C@H](c2ccc(OC(F)(F)F)cc2)C[C@H](c2nc(C3CC3)no2)C1
Effect on: cell-free assay
Method: competition with immobilised ligand
Concentration: 1 µM
target | remaining binding [%]
Serine/threonine-protein kinase Nek4 (NEK4, Homo sapiens, UniProt P51957) | 100
Serine/threonine-protein kinase MARK1 (MARK1, Homo sapiens, UniProt Q9P0L2) | 100
TGF-beta receptor type-2 (TGFBR2, Homo sapiens, UniProt P37173) | 100
Serine/threonine-protein kinase PAK 3 (PAK3, Homo sapiens, UniProt O75914) | 100
Serine/threonine-protein kinase D1 (PRKD1, Homo sapiens, UniProt Q15139) | 100
Tyrosine-protein kinase receptor UFO (AXL, Homo sapiens, UniProt P30530) | 100
Hepatocyte growth factor receptor (MET, Homo sapiens, UniProt P08581, M1250T) | 100
Cyclin-dependent kinase 9 (CDK9, Homo sapiens, UniProt P50750) | 100
Epithelial discoidin domain-containing receptor 1 (DDR1, Homo sapiens, UniProt Q08345) | 100
Tyrosine-protein kinase Mer (MERTK, Homo sapiens, UniProt Q12866) | 100

Block 3
Host: mouse
Medium: microsomes or S9
Concentration: 2 µM
Time: 0.5 h
Structure (SMILES) | remaining compound
O=C(Nc1ccccc1OC1CCCC1)c1c(O)cc(=O)n2c1CCC2 | 34.4%
COCCOc1cc(=O)n2c(c1C(=O)NCCC1=CCCCC1)CCOCC2 | 27.5%
C[C@H](Nc1ncnc2[nH]cnc12)c1cc2cccc(Cl)c2c(=O)n1-c1ccccc1 | 0.441%
COCCN1CCS(=O)(=O)c2c(Cl)c(F)nc(Oc3ccc(OC)cc3)c21 | 44.6%
COc1ccc([C@H](O)[C@H]2OCCN(Cc3ccccc3)C2=O)cc1 | 76%
C[C@]12CC[C@@H]3c4ccc(O)cc4CC[C@H]3[C@@H]1CC[C@@H]2O | 90.3%
Cc1ncoc1C(=O)N1C2CCC1Cn1c(nnc1-c1ccccc1)C2 (centres unmarked) | 94.7%
CCOC(=O)c1cc2n(n1)CC(C)(C(=O)NCCCOC)N(c1ccc(C)c(Cl)c1)C2=O (centres unmarked) | 1.5%
CC(C)(C)OC(=O)COc1ccc(-c2cc3ccccc3[nH]c2=O)cc1 | 3.47%

Block 4
Cell line: mouse MPNST tumor cells
Method: high-content immunofluorescence imaging
Item: nuclear SOX9
Concentration: 10 µM
Time: 12 h
Setting: mean of 2 replicates
Baseline: DMSO control
Direction: higher = more nuclear SOX9
Structure (SMILES) | nuclear SOX9 intensity
Nc1nc2c(ncn2COC(CO)CO)c(=O)[nH]1 | 101 % of DMSO and 93.4 % of DMSO
Cn1nnc2c(C(N)=O)ncn2c1=O | 105 % of DMSO and 82.8 % of DMSO and 101 % of DMSO
CC(=NNC(=S)N1CCC1)c1ccccn1 | 248 % of DMSO
COc1cc2ncn(-c3cc(OCc4ccccc4S(C)(=O)=O)c(C#N)s3)c2cc1OC | 100 % of DMSO
CN1CCN(c2c(F)cc3c(=O)c(C(=O)O)cn(CCF)c3c2F)CC1 | 96.6 % of DMSO
O=C1CCC(N2C(=O)c3ccccc3C2=O)C(=O)N1 (centres unmarked) | 97.2 % of DMSO and 93.8 % of DMSO
CC1(C)SCN(S(=O)(=O)c2ccccc2)C1C(=O)NC(CNC(=O)NCc1ccccc1)C(=O)O (centres unmarked) | 100 % of DMSO
Cn1ccc2cc(NC(=O)Nc3cccnc3)ccc21 | 98.6 % of DMSO
CN/C(=N\CCSCc1nc[nH]c1C)NC#N | 98.3 % of DMSO and 95.2 % of DMSO

For quick reference, copied from above (block 3):
Structure (SMILES) | remaining compound
Cc1ncoc1C(=O)N1C2CCC1Cn1c(nnc1-c1ccccc1)C2 (centres unmarked) | 94.7%
C[C@]12CC[C@@H]3c4ccc(O)cc4CC[C@H]3[C@@H]1CC[C@@H]2O | 90.3%
COCCOc1cc(=O)n2c(c1C(=O)NCCC1=CCCCC1)CCOCC2 | 27.5%
COc1ccc([C@H](O)[C@H]2OCCN(Cc3ccccc3)C2=O)cc1 | 76%
COCCN1CCS(=O)(=O)c2c(Cl)c(F)nc(Oc3ccc(OC)cc3)c21 | 44.6%
CCOC(=O)c1cc2n(n1)CC(C)(C(=O)NCCCOC)N(c1ccc(C)c(Cl)c1)C2=O (centres unmarked) | 1.5%
